Published values collected from several papers.
Every numbered part comes from another study and shows a few of its results, in no order. Substitutions count along the parent as printed.

Set 1 — technique: RNA Bind-n-Seq; molecule type: RNA; sample: in vitro; concentration: not given; setting: RNA with constant flanks, ends assumed; baseline: input RNA pool; direction: higher = stronger binding
Target: RING finger protein unkempt homolog, zinc fingers 1-6, GST-SBP tag (UNK, Homo sapiens, UniProt Q9C0B0, residues 30-357)
Chain of UniProt Q9C0B0 (30-357, looked up): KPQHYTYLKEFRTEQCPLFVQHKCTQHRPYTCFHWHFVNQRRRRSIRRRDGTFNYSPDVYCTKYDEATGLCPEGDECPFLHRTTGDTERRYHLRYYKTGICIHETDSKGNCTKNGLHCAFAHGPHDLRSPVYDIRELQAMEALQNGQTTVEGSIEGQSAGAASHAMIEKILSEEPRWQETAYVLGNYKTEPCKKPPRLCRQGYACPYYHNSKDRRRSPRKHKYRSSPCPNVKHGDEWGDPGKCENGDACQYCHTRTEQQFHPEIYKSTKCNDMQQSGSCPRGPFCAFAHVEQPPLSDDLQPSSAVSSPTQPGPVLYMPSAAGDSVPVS
Shared flanks, not repeated: GGGAGUUCUACAGUCCGACGAUC … CAACAGAGGAUUGAGCAUCA
| Strand | bound/input enrichment [ratio] |
| --- | --- |
| CUUACACAUAAACUGGUAUUUUCGAACAAUAGGAAACUAUUUUUUCUCCUUUUUUUACAGUUUCCGUACGUAUCUGGCUUGUAUGUGGAAGACUAAAAAGUUGAUUUGCUAAAUGUGGUC | 0.208 |
| AACUUCUCCGACUACAUCCGUGGAGGCAUCGUCAGUCAGGUCAAAGUACCUAAGAAGAUCCGCUUUAAAUCCUUGGUGGCCUCACUGGCAGAACCUGACUUUGUGGUGACGGACUUCGCC | 0.116 |
| CAUGUAUCUGCAGUGCUUGAUGUGGAUUACUCUCCCACUGGGAAGGAGUUUGUGUCUGCCCGUUUCGAUAAAUCUAUUCGAAUCUUUCCUGUAGACAAAAGUCGAAGCAGGGAGGUAUAU | 0.154 |
| AUAUAUAUUCAUUUGCACUUACGUGAAACACAAACUUUGCUCUACAAAAUUUCGUGUUUCUCCGUGAUUUUAAAAUGCAUGUAUUGCAUGUAAAGGAAAACCAUUACAAUUAAUGUUUAU | 0.169 |
| GCCAGGGGAGUUCUCAAAUGUGACAUCACAGACCUUCAGAUCAUUUGUUCUUUGGGAUACCGCAUUCUUCUCAUGGUCACAUGUACUGUGUAUGCCAUCAAGACUCGGGGUGUACCAGAG | 0.145 |
| CACAUCAAAGCAAUUCAGAUUAAAGAACAACUUCUUGGUCAAGAAGAUUAUGAAGCCGCCCUUUCAGUGGGACAUCUGGCUUCUUUAUAUAAUUAUGACAUGAAUCAGUAUGAAAAUGCU | 0.165 |
| GACCGCCUGGUAGCCUUUCCUACUAGAGUAGCAGGUGGUGUUGGAAUUACCUGUUGGAUUUCCGUCUGUAACAAAGUUGUCGCUAUUGUGCUUCAUCCGUUCAGCUGAACAGGAGGAUGG | 0.255 |
| GAGAGAGAAAAACUCGUGAAAGCUGAAAGAAAAUUCAUUGAAGAUAGGGUUAAAAAAAUAACCGAACUGAAAAGGAAAGUCUGUGGCGAUUCAGAUAAAGGAUUUGUUGUUAUUAAUCAA | 0.42 |
| CCAUUCUCUUAGUGAUGGGUUGGAUGAAGUCCAAAAAGCAGAAAUGAAAGCCUACAUGGAAUCCGUCAACAAUAUGCUGCUGACUGCAGAGGUAUAAGAGGAUAAGGCUUGAGAUCAGAC | 0.135 |

Set 2 — technique: RNA Bind-n-Seq; molecule type: RNA; sample: in vitro; concentration: 365 nM; baseline: no-protein control; direction: higher = stronger binding
Target: RNA binding protein fox-1 homolog 2, RRM domain, GST-SBP tag (RBFOX2, Homo sapiens, UniProt O43251-10, residues 100-194)
Setting: natural RNA segment, single round, ends assumed
Shared flanks, not repeated: GGGAGUUCUACAGUCCGACGAUC … UGGAAUUCUCGGGUGCCAA
Residues (chain): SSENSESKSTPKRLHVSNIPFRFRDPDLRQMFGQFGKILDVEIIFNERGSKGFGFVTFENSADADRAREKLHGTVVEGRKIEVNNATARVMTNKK
| Strand | RBNS enrichment (R) |
| --- | --- |
| CCUCUCUCUUCUGUCUUUAGAAAGCUGUGAUCGUGCGUGCAAUUAUUUGAAAGGCAACAUAGUCAAUUAAGAAACCUGUAGUUGUUAAGGAAGAAAUUGUUGGCAAGAUA | 0.372 |
| CUAUUUGGCAAAUGACUUAAGGUUAGAUGAAGCUUCAGUCUUGAUAACUGAAUAUUCAAAGCACUGCGGGAAACCUGUGCCUCCAGACACUGCUCCCUGUGAAAUUCUGA | 0.259 |
| UGAUAAAUCAAUAGCUAAAGUUUUCUCCUAACUUUAAGUCUGGUAAAUAUCUCUCAGGAAUGGAAGUGUCAAUGAGUAGUCAGUAUUACUAUACUCUUGUUUGUAAGAAU | 0.687 |
| GGUUUUACCAUGUUGGCCAGGCUGGUCUUAGACUCCUGACCUCAGUUGAUCCACCUGCCUCAGCCUCUGCAUUCAGUUUAUUCACAUAUUUUUGGUAACUCCCAUGGCAG | 0.477 |
| CAGUGGGGCACCAGCCGGCCACACCCAUUGCCUCGGCUGCCUCUUCAUAGACUCUUGCUGCCCAGCCGUUGGGGCCUCAGUGUUUGGGGUGAGGGAAGCCACUUAAAGAC | 0.301 |
| AAUCGGGUUGUCACUCAACAAAAGUGCUUUGGAUUUAAGUUACUAUCCUGGCUUUGCCCAACCUCAGCAACCUGUAAGACUGAUAAUGAAAUAAAUCAUGUUAAUCCUAG | 0.239 |
| AUUUUGGAUAUAUAAAUUCCUUAAGCUAUUGUAACCAUGUUUUAUUGCAAAGAUGUAAAAUAUGCCAGAUGUGUGUGAGUUGGAAAUCAAAAAAAGAAAAAUAAAAUAUG | 0.822 |
| CUGCUCUCCUGUGUGUGCUGAGGGCCAGCCUCACCCCAGGCUAGCCUGGACCCCCAGUGCUCCCUGUGACAAUACUGUGAUAUCAAAAAACUGAUAAUAAUUGGGACAUC | 0.527 |
| UGAAGUUCUCAAGUUCACCCGUUAGGGAAAAGUUAUUUUGUUUACAUUAUUAUAAGGGAUUUGUUAUGUCUGUAAAGUGUAACCUAGGAAGGAUCAUCAACCAUCUAAUC | 0.267 |
| GCUGACCUCACCCUUACUUUUAUACUUUAGUAUGAAACUGAUGAGAACUUUGGUAGUGAGUAUUUUUUUUAUAUAUAUACAUAUAUAUGUACUAUCUAUAUAUAUAUCUC | 0.767 |
| UGUGCAGCCCUCUAGUCAAUCACCAGUCCGGGAGUCAGGUUGUACUGAGUAGCUGGCCACGGAGGCUUGCUCAUGGAGGUCUCCAUCCCCAACAUCCAGAGGCCAGAAGA | 0.295 |
| UCUUGACCUGCCAGCUUCACUUCCAUCUGUGUUGCUAUUAGGUAUCUCUAACACCAGCACACUUCUUACGAGAUGUACUCAACCUGGCCUACUGGCCAGGUCACCAAGCA | 1.05 |

Set 3 — technique: DHFR PCA, deep sequencing; sample: yeast; together with: (+)-ABA 200 µM; baseline: wild-type fitted maximum; direction: higher = stronger binding
Target: ABI1, truncated, D143A, DHFR fusion (Arabidopsis thaliana)
Setting: methotrexate growth selection, single substitutions
Parent: PYL1, truncated, DHFR fusion (Arabidopsis thaliana); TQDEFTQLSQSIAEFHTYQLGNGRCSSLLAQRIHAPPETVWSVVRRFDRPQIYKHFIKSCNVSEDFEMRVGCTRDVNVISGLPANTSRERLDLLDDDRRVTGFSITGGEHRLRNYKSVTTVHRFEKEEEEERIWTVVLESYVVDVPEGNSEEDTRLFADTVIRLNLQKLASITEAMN
| Substitution | relative binding score [%] |
| --- | --- |
| A35C | 91.2 |
| E64P | 104 |
| C60P | 11.9 |
| F103I | 58 |
| E38N | 91.6 |
| Q7K | 96.1 |
| N177F | 104 |
| E151S | 94.2 |
| L164K | 90.9 |
| V161T | 36.8 |
| M68C | 98.3 |
| E131C | 108 |
| I162K | 19.4 |
| E128I | 99.6 |
| V137T | 34.3 |
| E130W | 92.4 |
| S26K | 90.6 |

Set 4 — technique: RNA Bind-n-Seq; molecule type: RNA; sample: in vitro; concentration: 1 µM; setting: whole 134-nt RNA, ends assumed; together with: 150 mM KCl; baseline: input library; direction: higher = stronger binding
Target: Ras GTPase-activating protein-binding protein 1, C-terminal RGG region (G3BP1, Homo sapiens, UniProt Q13283)
Chain of UniProt Q13283 (whole entry, looked up): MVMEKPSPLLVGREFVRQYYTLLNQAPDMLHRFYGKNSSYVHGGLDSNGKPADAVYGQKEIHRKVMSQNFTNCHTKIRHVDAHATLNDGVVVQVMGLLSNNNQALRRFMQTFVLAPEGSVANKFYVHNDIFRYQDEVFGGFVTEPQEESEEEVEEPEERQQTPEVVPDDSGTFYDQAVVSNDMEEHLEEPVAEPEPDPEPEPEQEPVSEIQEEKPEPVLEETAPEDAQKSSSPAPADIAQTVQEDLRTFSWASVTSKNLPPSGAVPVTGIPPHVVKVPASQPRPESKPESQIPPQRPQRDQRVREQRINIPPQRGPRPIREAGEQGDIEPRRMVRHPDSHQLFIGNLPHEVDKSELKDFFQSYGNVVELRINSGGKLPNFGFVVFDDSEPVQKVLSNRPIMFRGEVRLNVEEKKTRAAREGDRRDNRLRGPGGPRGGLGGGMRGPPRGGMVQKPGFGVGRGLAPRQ
Shared flanks, not repeated: GGGAGUUCUACAGUCCGACGAUC … UGGAAUUCUCGGGUGUCAAGG
| Strand | log2 enrichment |
| --- | --- |
| CCUGUGCUACACAUCGUAUGUACCGAAUCGGGUUUUUUGGUUUUUUGGGGUUUUUUGGGGAAAGUAUUAUGUUACGCCGUUCGGAUCUGC | -1.73 |
| CAAGUCCUGUGCUACACAUCGUAUGUACCGAAUCGGGGCCCGGGCCCGGGGCCCGGAAAGUAUUAUGUUACGCCGUUCGGAUCUGCACUU | -2.22 |
| CCUGUGCUACACAUCGUAUGUACCGAAUCGGGGAAAAAAGGGGAAAAAAGGAAAAAAGGGGAAAGUAUUAUGUUACGCCGUUCGGAUCUG | -1.51 |
| AAGUCCUGUGCUACACAUCGUAUGUACCGAAUCGGGGUUUGGGGUGGGGUUUGGGGAAAGUAUUAUGUUACGCCGUUCGGAUCUGCACUU | 1.31 |
| ACCAUGCAGGUGGGCAUCUUUGGGAAGUGGGGCAAUGGGGGGAUAGGGAGGGGGGUAACACUUUGGGAACAGGUGGUCCCAGGUCGUUUC | -0.747 |
| GCAGGAAGUAAAAACAAAUGGAAAUGCUUCGGAUAGUGGCAGGGGUGGGGGUUCCUAAGGAAAGGGUGGGAUGGGAGUGGGUAAAGAGUU | 1.08 |
| GUCCUGUGCUACACAUCGUAUGUACCGAAUCGGGCCCCCCGGCCCCCCGGGCCCCCCGGAAAGUAUUAUGUUACGCCGUUCGGAUCUGCA | -0.886 |
| CUGUGCUACACAUCGUAUGUACCGAAUCGGGCCCCCCCGGGCCCCCCCGGGGCCCCCCCGGGAAAGUAUUAUGUUACGCCGUUCGGAUCU | -2.4 |
| UGCAGGGUCUGGGUAGCAGCUGGGCUUCCAGCUUUCUCCUUGCACCUGACUUGGGCUUUUUUCUCCUCACAGGAUGGGCCUUGACGGCAU | -0.19 |

Excerpt of the above (set 3):
| Substitution | relative binding score [%] |
| --- | --- |
| E128I | 99.6 |
| E38N | 91.6 |
| S26K | 90.6 |
| C60P | 11.9 |
| M68C | 98.3 |
| E151S | 94.2 |
| N177F | 104 |
